# Published values from different studies.
# Values joined by “and” are separate records of one study, mostly repeats; a detail may differ.
# Target: cAMP-dependent protein kinase catalytic subunit alpha (PRKACA, Homo sapiens, UniProt P17612)
Compound,test,setting,scale,measurement,value
Cc1cccc(O[C@H]2CCC[C@@H](C(C)CNCc3ccncc3)C2)c1 (relative stereo),"enzyme activity, inhibitor",1 µM,,inhibition,-2%
C=C1CCCCCCCCCC(CO)C1=O (stereo not shown),cell-free assay,10 µM,,remaining signal,100%
NC(=O)C[C@H]1CCc2sc3ncnc(O[C@H]4CC[C@H](N5CCOCC5)CC4)c3c21,"enzyme activity, inhibitor",10 µM,,inhibition,13%
Nc1nc(Nc2ccccc2)sc1C(=O)c1ccccc1,"enzyme activity, inhibitor",10 µM,,remaining activity,77%
CN1CCN(Cc2ccc(-c3ccc(CO[C@H]4CCC[C@@H]4NC(=O)c4cc(-c5cnn(C)c5)cnc4N)cc3)cc2)CC1,"enzyme activity, inhibitor",0.1 µM,,inhibition,-8%
CNC1C[S+]2CC[S+]3CC[S+](C1)[Ru-4]321([N]=C=S)[n]2c3ccc(OC)cc3c3c4c(c5cc(F)c[n+]1c5c32)C(=O)NC4=O (stereo not shown),KinomeScan,0.1 µM,baseline: untreated,remaining binding,98%
COCC12C(=O)NC3C4(C(OC)CC1O)C1CC5(O)C(OC)C(O)C(OC(C)=O)(C1C5OC(=O)c1ccccc1)C3(O)C(OC)C24 (stereo not shown),"kinase activity, inhibitor, ProQinase kinase profiling",25 µM,baseline: control,remaining activity,115%
CCN1CCN(Cc2ccc(C(=O)Nc3ccc(C)c(NCc4cnc5[nH]ccc5c4OC)c3)cc2C(F)(F)F)CC1,"binding, competition with immobilised ligand",1 µM,,remaining binding,71%
COc1ccc(NC(=O)Nc2ccc3c(c2)C(=O)N(C(C)CO)CC(C)C(CN(C)Cc2ccc4c(c2)OCO4)O3)cc1 (stereo not shown),"kinase activity, KinaseProfiler","0.03 µM, species human",baseline: control,remaining activity,108%
CNC(=O)C1CCN(c2cc(C)c(F)cc2NC(=O)c2ccc(-c3cc(O)ccc3C)c(C)c2)CC1,"binding, competition with immobilised ligand",1 µM,,remaining binding,73%
COc1ccc(O)cc1-c1c[nH]c2ncc(-c3cncc(C(=O)N(C)C)c3)cc12,"binding, competition with immobilised ligand",0.2 µM,,inhibition,-5.82%
COc1cc(Nc2nc(C)cc(-c3cnn4nc(OC)ccc34)n2)cc(C(F)(F)F)c1,KINOMEscan,"1 µM, PKAC-alpha",baseline: DMSO,remaining binding,92%
CC(=O)N1c2ccc(-c3ccc(CNC(=O)c4cn5cc(-c6cnc(N)nc6)nc(N6CCOCC6)c5n4)cc3)cc2CC[C@@H]1C,KINOMEscan,10 µM,,remaining binding,100%
Cc1ccc(-c2c(/C=C(\C#N)C(=O)NC(C)C)n(CCCO)c3ncnc(N)c23)cc1,"cell-free assay, competition with immobilised ligand",1 µM,,remaining binding,100%
COc1c(OCCCN2CCOCC2)ccc2c1N=C(NC(=O)c1cnc(N)nc1)N1CCN=C21,"kinase activity, inhibitor",1 µM,baseline: untreated control,remaining activity,96%
O=C(Cc1ccc(OCc2ccccc2)cc1)NC1(C(=O)O)CCN(C(=O)c2ccc(-c3cccc(Cl)c3)cc2)CC1,"enzyme activity, inhibitor",10 µM,,activity vs control,90%
Cc1cccc(-c2ccc3nc(NC(=O)C4CCCCC4)nn3c2)c1,"enzyme activity, Dundee kinase panel",10 µM,,remaining activity,87%
Nc1ncc2c(n1)-c1c([nH]c3ccc(C4=CCOCC4)cc13)CCC2,"binding, competition with immobilised ligand",1 µM,,remaining binding,100%
Cc1cccc(-c2ccc3nc(NC(=O)C4CCOCC4)nn3c2)c1,"enzyme activity, Dundee kinase panel",10 µM,,remaining activity,82%
O=c1c(-c2ccc(Cl)c(CN3CCOCC3)c2)coc2cc(O)ccc12,"enzyme activity, inhibitor",1 µM,,remaining activity,95%
C[C@H]1CN(C(=O)c2cn(-c3ccnc(N)n3)c3cc(C#CC4(O)CCCCC4)ccc23)CCN1,"enzyme activity, inhibitor, FRET",1 µM,,inhibition,5%
COc1ccc(C(=O)/C=C/c2ccccc2-c2c[nH]c3ccc(C#N)cc23)c(O)c1,"enzyme activity, inhibitor",20 µM,,inhibition,-12%
C=CC(=O)Nc1cccc(-c2cnc3[nH]cc(C(=O)NC(C)(C)C)c3n2)c1,kinase activity,0.1 µM,,inhibition,3% and 5%
CN1CCN(Cc2ccc(NC(=O)c3cccc(C#Cc4cnc(N)c5ncccc45)c3)cc2C(F)(F)F)CC1,"cell-free assay, competition with immobilised ligand",50 nM,,remaining binding,87%
C=CC(=O)N1CCc2ccc(-n3c(=O)ccc4cnc5ccc(-c6cnn(C)c6)cc5c43)cc21,KINOMEscan,1 µM,baseline: DMSO control,remaining binding,94%

# For quick reference, copied from above:
Compound,test,setting,scale,measurement,value
CN1CCN(Cc2ccc(-c3ccc(CO[C@H]4CCC[C@@H]4NC(=O)c4cc(-c5cnn(C)c5)cnc4N)cc3)cc2)CC1,"enzyme activity, inhibitor",0.1 µM,,inhibition,-8%
CNC1C[S+]2CC[S+]3CC[S+](C1)[Ru-4]321([N]=C=S)[n]2c3ccc(OC)cc3c3c4c(c5cc(F)c[n+]1c5c32)C(=O)NC4=O (stereo not shown),KinomeScan,0.1 µM,baseline: untreated,remaining binding,98%
